Measured values from different studies.
Several values in a cell are separate wells, animals, samples, runs or records. Numbers after ± are the reported error.
Organism: HIV-1

| Compound | assay | test system | conditions | EC50 |
| --- | --- | --- | --- | --- |
| Cc1nn(C(C)c2nnc(Nc3ccn(Cc4ccccc4)n3)s2)c(C)c1Br (stereo not shown) | viral replication, luciferase reporter | TZM-bl, NL4-3 | 48 h | 0.06 ± 0.02 µM |
| COc1ccccc1NS(=O)(=O)c1ccc(N/N=C(\C)c2ccccc2Br)c([N+](=O)[O-])c1 | viral cytopathic effect, MTT | MT4, IIIB | – | 12 µM |
| CCCC(=O)OCSc1ccccc1C(=O)NCCn1cc(C(=O)N2CCN(C)CC2)c(=O)c2cc3c(cc21)OCO3 | virus-induced cytopathic effect, inhibitor, XTT | CEM-SS, RF | 6 days | 75.6 ± 14.4 µM |
| CC/N=c1/scc(-c2cc(OC)ccc2OC)n1/N=C(\C)c1ccco1 | viral cytopathic effect, MTT | MT4, IIIB | – | > 60 µM |
| CCCC(=O)OCSc1ccccc1C(=O)NCCn1cc(C(=O)NCc2ccncc2)c(=O)c2cc3c(cc21)OCO3 | virus-induced cytopathic effect, inhibitor, XTT | CEM-SS, RF | 6 days | 0.38 ± 0.49 µM |
| CCC[C@H](NC(=O)C1CN(C)C1)c1ncc(-c2cc3ccccc3nc2OC)[nH]1 | HIV latency reversal | Jurkat 2C4 latent HIV provirus | – | > 40 µM |
| Cn1c(Cn2ccc(C(F)(F)F)c(Oc3cc(Cl)cc(C#N)c3)c2=O)n[nH]c1=O | viral replication, MTT | MT4, IIIB wild type | – | 0.0023 ± 0.001 µM |
| Cc1nnc(C(=O)NC(C)(C)c2nc(C(=O)NCc3ccc(F)cc3)c(O)c(=O)n2C)o1 | infectivity of progeny virus | HEK293FT, NL4-3 | – | > 1.5 µM |
| CCCC(=O)OCSc1ccccc1C(=O)NCCn1ccc(=O)c2cc(OC(F)(F)F)ccc21 | virus-induced cytopathic effect, inhibitor, XTT | CEM-SS, RF | 6 days | 4.89 ± 1.43 µM |
| CCNc1nc(NCC)nc(C(=O)NN)n1 | viral cytopathic effect, MTT | MT4, IIIB | – | > 20 µM |
| CCCC(=O)OCSc1ccccc1C(=O)NCCn1cc(C(=O)NCc2ccccc2)c(=O)c2cc3c(cc21)OCO3 | virus-induced cytopathic effect, inhibitor, XTT | CEM-SS, RF | 6 days | 5.13 ± 0.16 µM |
| COc1ccc(OC)c(/C=N/NC(=O)c2n[nH]c3c2CCC3)c1 | viral cytopathic effect, MTT | MT4, IIIB | – | > 40 µM |
| O=C1Nc2ccc(Cl)cc2[C@@](C#CC2CC2)(C(F)(F)F)O1 | viral replication, MTT | MT4, IIIB wild type | – | 0.0019 ± 0.0009 µM |
| CCc1cc(F)c(Cc2cnc(Nc3ccc(C#N)c(Cl)c3)o2)c(F)c1 | protection from cytopathicity | MT2 cells, IIIB wild type | – | 0.0013 µM |
| COc1ccccc1N1CCN(/N=C/c2ccc(Cl)c([N+](=O)[O-])c2)CC1 | viral cytopathic effect, MTT | MT4, IIIB | – | > 100 µM |
| Cc1cc(C#N)cc(C)c1Oc1nc(Nc2ccc(C#N)cc2)nc(N)c1Br | viral replication, MTT | MT4, IIIB wild type | – | 0.0042 ± 0.0015 µM |
| CCCC(=O)OCSc1ccccc1C(=O)NCCOc1ccnc2ccc(OC)cc12 | virus-induced cytopathic effect, inhibitor, XTT | CEM-SS, RF | 6 days | 7.17 ± 2.94 µM |
| CN1CCC(c2c(O)cc(O)c3c(=O)cc(-c4ccccc4)oc23)C(O)C1 (stereo not shown) | viral replication, single-round infectivity | HeLa-CD4-LTR-β-gal, LAI | – | < 0.01 µM and 0.0074 µM |
| CCCC(=O)OCSc1ccccc1C(=O)NCCn1cc(C(=O)NCc2ccccn2)c(=O)c2cc3c(cc21)OCO3 | virus-induced cytopathic effect, inhibitor, XTT | CEM-SS, RF | 6 days | 0.54 ± 0.11 µM |
| Cc1nc(NCCNc2ccnc3cc(Cl)ccc23)nc(-c2ccccc2[N+](=O)[O-])c1C(=O)OC(C)C | viral replication | CCRF-CEM, IIIB | – | > 2 µM |
| COc1ccc(CN2CCCN(c3ccc(S(=O)(=O)Nc4ccccc4)cc3[N+](=O)[O-])CC2)cc1 | viral cytopathic effect, MTT | MT4, IIIB | – | 24 µM |
| CCCC(=O)OCSc1ccccc1C(=O)NCCn1cc(C(=O)NCc2cccc(C)n2)c(=O)c2cc3c(cc21)OC(F)(F)O3 | viral replication | human PBMC, CMU08 (CXCR4-tropic) | – | 5.23 ± 0.37 µM |
